Measured values of several laboratories.
Compare with care: the assays were run in different laboratories. Several values in a cell are separate wells, animals, samples, runs or records. ± gives the spread as reported.
ARID1B: AT-rich interactive domain-containing protein 1B (ARID1B, Homo sapiens, UniProt Q8NFD5)
Sequence of UniProt Q8NFD5 (whole entry, looked up): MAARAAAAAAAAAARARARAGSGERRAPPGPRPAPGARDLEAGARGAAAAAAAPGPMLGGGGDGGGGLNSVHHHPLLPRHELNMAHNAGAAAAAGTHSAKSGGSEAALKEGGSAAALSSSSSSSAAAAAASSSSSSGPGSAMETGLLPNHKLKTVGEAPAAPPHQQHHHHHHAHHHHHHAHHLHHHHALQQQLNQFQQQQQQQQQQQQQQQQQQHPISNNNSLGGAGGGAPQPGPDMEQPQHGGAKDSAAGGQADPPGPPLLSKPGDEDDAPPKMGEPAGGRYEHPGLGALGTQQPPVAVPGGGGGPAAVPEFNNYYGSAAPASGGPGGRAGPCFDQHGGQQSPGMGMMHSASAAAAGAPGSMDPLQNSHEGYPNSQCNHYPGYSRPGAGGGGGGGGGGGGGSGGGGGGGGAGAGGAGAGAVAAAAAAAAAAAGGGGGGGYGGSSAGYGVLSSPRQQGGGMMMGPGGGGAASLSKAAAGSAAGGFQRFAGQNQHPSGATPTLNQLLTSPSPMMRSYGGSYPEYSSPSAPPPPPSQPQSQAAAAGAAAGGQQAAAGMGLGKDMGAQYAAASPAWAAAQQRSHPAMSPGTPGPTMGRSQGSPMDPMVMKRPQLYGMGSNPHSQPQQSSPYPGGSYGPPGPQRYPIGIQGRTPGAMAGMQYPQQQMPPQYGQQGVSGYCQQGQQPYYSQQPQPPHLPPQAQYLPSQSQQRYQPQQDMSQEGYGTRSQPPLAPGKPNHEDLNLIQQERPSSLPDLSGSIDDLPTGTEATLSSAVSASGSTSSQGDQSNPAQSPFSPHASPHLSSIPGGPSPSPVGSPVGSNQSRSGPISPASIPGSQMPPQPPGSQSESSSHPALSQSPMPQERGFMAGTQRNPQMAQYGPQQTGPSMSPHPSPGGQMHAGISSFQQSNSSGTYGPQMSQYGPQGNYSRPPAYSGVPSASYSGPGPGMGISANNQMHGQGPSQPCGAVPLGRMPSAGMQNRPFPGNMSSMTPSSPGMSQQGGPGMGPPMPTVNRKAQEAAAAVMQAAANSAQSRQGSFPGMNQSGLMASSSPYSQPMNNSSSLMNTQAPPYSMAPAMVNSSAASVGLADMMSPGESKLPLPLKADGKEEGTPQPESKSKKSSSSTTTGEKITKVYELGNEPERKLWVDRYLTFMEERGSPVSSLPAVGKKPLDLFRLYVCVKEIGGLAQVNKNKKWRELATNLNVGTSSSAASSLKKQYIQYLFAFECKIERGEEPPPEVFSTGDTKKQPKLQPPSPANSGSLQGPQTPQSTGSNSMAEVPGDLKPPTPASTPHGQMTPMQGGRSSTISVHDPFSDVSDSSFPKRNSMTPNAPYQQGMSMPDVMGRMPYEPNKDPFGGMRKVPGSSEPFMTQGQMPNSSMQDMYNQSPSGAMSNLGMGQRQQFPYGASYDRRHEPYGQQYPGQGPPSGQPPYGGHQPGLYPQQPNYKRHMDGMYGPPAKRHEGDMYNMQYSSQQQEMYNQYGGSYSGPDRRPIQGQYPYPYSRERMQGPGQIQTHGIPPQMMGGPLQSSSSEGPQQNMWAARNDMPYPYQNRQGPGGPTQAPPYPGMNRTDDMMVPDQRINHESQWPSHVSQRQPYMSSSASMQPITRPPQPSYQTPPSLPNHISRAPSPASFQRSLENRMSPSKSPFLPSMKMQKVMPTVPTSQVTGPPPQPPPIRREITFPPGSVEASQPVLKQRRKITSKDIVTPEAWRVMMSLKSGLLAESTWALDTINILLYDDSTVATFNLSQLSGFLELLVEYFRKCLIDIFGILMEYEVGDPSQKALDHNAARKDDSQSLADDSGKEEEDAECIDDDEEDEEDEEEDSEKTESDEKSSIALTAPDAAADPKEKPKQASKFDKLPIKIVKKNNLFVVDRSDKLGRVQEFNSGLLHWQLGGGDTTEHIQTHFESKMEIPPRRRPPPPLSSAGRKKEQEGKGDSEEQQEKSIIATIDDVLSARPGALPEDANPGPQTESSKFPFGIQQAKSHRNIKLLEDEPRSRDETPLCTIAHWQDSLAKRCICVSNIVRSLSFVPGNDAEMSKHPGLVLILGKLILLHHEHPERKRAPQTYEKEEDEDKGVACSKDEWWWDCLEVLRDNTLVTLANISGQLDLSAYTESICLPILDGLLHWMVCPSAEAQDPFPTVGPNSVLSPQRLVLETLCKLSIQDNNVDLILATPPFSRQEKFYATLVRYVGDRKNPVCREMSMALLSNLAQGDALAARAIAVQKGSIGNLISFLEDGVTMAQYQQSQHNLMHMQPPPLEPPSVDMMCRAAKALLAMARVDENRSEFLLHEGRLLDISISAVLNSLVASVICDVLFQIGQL
gyrB with GyrA: DNA gyrase subunit B, with GyrA (gyrB, Mycobacterium tuberculosis, UniProt P9WG45)
Sequence of UniProt P21554 (whole entry, unmodified, looked up): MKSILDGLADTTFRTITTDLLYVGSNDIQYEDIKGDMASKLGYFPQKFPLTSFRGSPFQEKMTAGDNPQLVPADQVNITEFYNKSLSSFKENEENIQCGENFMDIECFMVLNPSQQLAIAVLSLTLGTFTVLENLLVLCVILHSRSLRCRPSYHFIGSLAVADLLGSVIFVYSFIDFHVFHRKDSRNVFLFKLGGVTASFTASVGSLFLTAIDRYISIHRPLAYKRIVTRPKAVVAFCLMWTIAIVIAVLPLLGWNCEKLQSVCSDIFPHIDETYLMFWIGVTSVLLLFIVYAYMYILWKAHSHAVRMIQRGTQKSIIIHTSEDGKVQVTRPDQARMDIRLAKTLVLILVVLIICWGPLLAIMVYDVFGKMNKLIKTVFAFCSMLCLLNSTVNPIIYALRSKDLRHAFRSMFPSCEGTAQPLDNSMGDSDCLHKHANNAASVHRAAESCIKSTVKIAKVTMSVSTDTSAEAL
Sequence of UniProt P31944 (whole entry, looked up): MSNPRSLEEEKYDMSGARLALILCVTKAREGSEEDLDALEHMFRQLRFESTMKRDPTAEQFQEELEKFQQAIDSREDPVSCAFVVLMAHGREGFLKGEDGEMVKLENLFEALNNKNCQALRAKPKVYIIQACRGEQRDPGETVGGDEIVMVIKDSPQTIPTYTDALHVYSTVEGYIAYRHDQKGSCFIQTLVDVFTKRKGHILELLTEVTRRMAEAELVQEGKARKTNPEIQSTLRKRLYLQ
Sequence of UniProt P9WG45 (whole entry, looked up): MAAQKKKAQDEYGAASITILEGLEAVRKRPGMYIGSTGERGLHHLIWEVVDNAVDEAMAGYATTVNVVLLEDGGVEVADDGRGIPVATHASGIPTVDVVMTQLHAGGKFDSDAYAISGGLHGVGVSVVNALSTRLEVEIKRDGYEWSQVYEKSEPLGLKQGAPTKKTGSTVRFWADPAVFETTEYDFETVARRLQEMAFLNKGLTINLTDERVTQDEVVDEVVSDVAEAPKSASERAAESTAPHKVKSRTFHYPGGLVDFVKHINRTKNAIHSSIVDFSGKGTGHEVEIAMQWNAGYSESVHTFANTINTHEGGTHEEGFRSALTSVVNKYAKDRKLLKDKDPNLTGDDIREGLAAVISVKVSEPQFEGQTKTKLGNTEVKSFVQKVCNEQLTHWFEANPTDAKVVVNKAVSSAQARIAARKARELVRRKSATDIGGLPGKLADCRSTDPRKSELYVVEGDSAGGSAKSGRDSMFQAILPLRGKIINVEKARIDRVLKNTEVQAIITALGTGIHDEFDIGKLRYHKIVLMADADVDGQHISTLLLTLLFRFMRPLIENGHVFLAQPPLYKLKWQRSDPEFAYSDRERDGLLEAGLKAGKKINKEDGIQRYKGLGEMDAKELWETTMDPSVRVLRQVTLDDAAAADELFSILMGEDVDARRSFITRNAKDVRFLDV
Sequence of UniProt Q00987 (whole entry, looked up): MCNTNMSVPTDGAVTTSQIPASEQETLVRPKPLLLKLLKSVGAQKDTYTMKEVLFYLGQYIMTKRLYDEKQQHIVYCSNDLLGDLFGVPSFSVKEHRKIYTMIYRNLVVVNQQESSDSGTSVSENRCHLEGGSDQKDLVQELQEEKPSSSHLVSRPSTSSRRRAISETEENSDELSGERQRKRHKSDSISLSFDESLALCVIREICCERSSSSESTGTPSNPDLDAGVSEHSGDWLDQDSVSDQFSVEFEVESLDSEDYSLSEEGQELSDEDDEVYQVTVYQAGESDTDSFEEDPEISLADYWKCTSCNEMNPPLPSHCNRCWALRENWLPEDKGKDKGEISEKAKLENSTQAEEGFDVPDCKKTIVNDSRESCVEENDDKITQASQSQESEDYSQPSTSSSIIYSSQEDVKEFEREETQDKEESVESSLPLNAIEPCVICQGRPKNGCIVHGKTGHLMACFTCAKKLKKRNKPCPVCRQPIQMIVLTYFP
Sequence of UniProt P41143 (whole entry, unmodified, looked up): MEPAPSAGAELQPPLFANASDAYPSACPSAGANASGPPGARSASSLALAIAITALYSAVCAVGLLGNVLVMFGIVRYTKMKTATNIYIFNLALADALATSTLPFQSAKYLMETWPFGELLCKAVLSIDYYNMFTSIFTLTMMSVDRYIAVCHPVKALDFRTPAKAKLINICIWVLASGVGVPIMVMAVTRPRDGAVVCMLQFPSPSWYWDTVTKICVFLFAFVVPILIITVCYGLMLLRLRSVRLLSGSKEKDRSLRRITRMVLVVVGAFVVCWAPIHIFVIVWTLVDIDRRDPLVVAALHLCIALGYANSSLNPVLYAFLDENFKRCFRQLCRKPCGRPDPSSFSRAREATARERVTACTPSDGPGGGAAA
Sequence of UniProt P41586 (whole entry, looked up): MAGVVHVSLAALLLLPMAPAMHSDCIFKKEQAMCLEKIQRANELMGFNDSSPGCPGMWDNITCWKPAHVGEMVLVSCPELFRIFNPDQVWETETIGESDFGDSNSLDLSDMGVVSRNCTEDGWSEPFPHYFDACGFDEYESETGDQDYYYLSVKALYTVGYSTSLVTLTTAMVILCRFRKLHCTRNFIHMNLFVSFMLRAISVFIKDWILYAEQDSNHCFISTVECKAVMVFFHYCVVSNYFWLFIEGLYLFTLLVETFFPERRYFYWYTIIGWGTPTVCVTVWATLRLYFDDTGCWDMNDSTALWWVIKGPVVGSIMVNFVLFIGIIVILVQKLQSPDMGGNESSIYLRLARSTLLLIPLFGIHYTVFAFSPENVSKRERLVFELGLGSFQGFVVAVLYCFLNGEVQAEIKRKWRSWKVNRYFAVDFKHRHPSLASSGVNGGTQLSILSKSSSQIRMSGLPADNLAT

With `O=C(c1ccc(Cl)cc1Cl)N1CCO[C@@H](c2ccccc2)C1` the Kd was 6.1 µM (Hemagglutinin (HA, Influenza A virus, UniProt P03452); A/Puerto Rico/8/1934).
The EC50 of `O=[N+]([O-])CC(c1ccco1)c1c(-c2ccccc2)[nH]c2ccccc12` (centres unmarked) is reported as over 1000 µM (Cannabinoid receptor 1 (CNR1, Homo sapiens, UniProt P21554, W241A); G protein activation, agonist, BRET).
The Ki of `CCC[C@@H](C(=O)c1ccccc1)N1CCCC1` is reported as 0.048 µM (Sodium-dependent dopamine transporter (SLC6A3, Homo sapiens, UniProt Q01959); dopamine uptake, inhibitor; HEK293 transiently transfected; DAT V152I mutant, together with: [3H]dopamine).
`COc1ccccc1C(C[N+](=O)[O-])c1c(-c2ccccc2)[nH]c2ccccc12` (centres unmarked) has an EC50 of 0.31 ± 0.08 µM (Cannabinoid receptor 1 (CNR1, Homo sapiens, UniProt P21554, N393A); G protein activation, agonist).
With `CCn1ccc(-c2cc([C@@H](C)NC(=O)c3cc(OCCN(C)C)ccc3C)c3ccccc3n2)n1` the viability was 0% and 0.158% (Vero E6; 250 µM).
`CCN(CC)C(=O)c1ccc(C(c2cccc(O)c2)N2CC(C)N(Cc3ccccc3)CC2C)cc1` (centres unmarked) gave an EC50 of 0.00076 ± 0.00043 µM (Delta-type opioid receptor (OPRD1, Homo sapiens, UniProt P41143, H278A); agonist).
`Cc1cc(C(=O)Nc2nc3cccc(C)c3n2[C@H]2CCCCN(C(=O)/C=C/CN(C)C)C2)ccn1`: “EC50 fold shift” 0.57 fold and 0.53 fold (Trypanosoma brucei; cell growth, Alamar Blue; 2T1 overexpressing Tb927.10.2040; relative to: parental 2T1).
The IC50 of `CC(C)C[C@@H]1NC(=O)CN(C)C(=O)[C@H](Cc2c[nH]c3ccccc23)NC(=O)[C@H](CCC(=O)O)NC(=O)[C@H](Cc2ccccc2)N(C)C(=O)[C@H](Cc2ccccc2)NC(=O)CSC[C@@H](C(N)=O)NC(=O)[C@H](CCCCN)NC(=O)[C@H](C(C)C)NC(=O)[C@H](C)NC(=O)[C@H](Cc2ccc(O)cc2)NC(=O)[C@H](C(C)C)NC(=O)[C@H](Cc2ccccc2)N(C)C(=O)[C@H](CCCNC(=N)N)NC1=O` is reported as over 1 µM (ARID1B; binding, TR-FRET competition; 1% DMSO).
The EC50 of `CCCCCn1cc(C(=O)c2cccc3c2CC(C)(C)C3)c2ccccc21` is reported as 0.0339 µM (Cannabinoid receptor 1 (CNR1, Homo sapiens, UniProt P21554); GαoA activation, agonist, BRET).
For `CC1(C)CC(NC(=O)c2[nH]c3ccc(Cl)cc3c2CCC(=O)Nc2ccc(Cl)cc2)CC(C)(C)N1[O]`, the IC50 was 3.2 µM (gyrB with GyrA).
`CC(C)c1nc2cc(O)ccc2c(=O)n1-c1ccc(C#N)cc1` gave an IC50 of 0.86 µM (Transient receptor potential cation channel subfamily V member 1 (TRPV1, Homo sapiens, UniProt Q8NER1, T556A); ion current, antagonist, whole-cell patch clamp; mutant T556A, +80 mV, together with: pH 5 stimulus).
`CC[C@H](C)[C@H](NC(=O)[C@H](CO)NC(=O)[C@H](CC(N)=O)NC(=O)[C@H](CC(C)C)NC(=O)[C@H](Cc1ccc(O)cc1)NC(=O)[C@H](CCCCN)NC(=O)[C@H](CCCCN)NC(=O)[C@@H](NC(=O)[C@H](C)NC(=O)[C@H](CCSC)NC(=O)[C@H](CCC(N)=O)NC(=O)[C@H](CCCCN)NC(=O)[C@H](CCCN=C(N)N)NC(=O)[C@H](CC(C)C)NC(=O)[C@H](CCCN=C(N)N)NC(=O)[C@@H](NC(=O)[C@H](Cc1ccc(O)cc1)NC(=O)[C@H](CC(N)=O)NC(=O)[C@H](CC(=O)O)NC(=O)[C@@H](NC(=O)[C@H](Cc1ccccc1)NC(=O)[C@@H](NC(=O)[C@H](C)NC(=O)[C@H](CC(=O)O)NC(=O)[C@H](CO)NC(=O)[C@@H](N)Cc1c[nH]cn1)C(C)C)[C@@H](C)O)[C@@H](C)O)C(C)C)C(=O)N[C@@H](CC(C)C)C(=O)N[C@@H](CC(N)=O)C(N)=O` gave an EC50 of 0.0776 µM (Pituitary adenylate cyclase-activating polypeptide type I receptor (ADCYAP1R1, Homo sapiens, UniProt P41586); calcium signal, agonist, fluorescence).
For `CCCCCn1cc(C(=O)c2ccc3ccccc3c2)c2ccccc21`, the EC50 was 1.05 µM (Cannabinoid receptor 1 (CNR1, Homo sapiens, UniProt P21554, H178A); G protein activation, agonist, BRET).
For `O=C(CCc1c(C(=O)Nc2ccncc2)[nH]c2ccc(Cl)cc12)Nc1ccncc1`, the IC50 was 21.3 µM (gyrB with GyrA).
For `Cc1ccc2c(C(C[N+](=O)[O-])c3cccs3)c(-c3ccccc3)[nH]c2c1` (centres unmarked), the EC50 was 0.12 µM (Cannabinoid receptor 1 (CNR1, Homo sapiens, UniProt P21554, I245M); β-arrestin recruitment, agonist).
`CC(C)[C@@H]1NC(=O)[C@H](Cc2ccc(O)cc2)NC(=O)[C@H](Cc2ccc(O)cc2)NC(=O)[C@H](C(C)C)NC(=O)[C@H](Cc2ccccc2)N(C)C(=O)[C@H](CCCNC(=N)N)NC(=O)[C@H](C)NC(=O)CN(C)C(=O)[C@H](Cc2c[nH]c3ccccc23)NC(=O)[C@H](CCC(=O)O)NC(=O)[C@H](Cc2ccccc2)N(C)C(=O)[C@H](Cc2ccccc2)NC(=O)CSC[C@@H](C(N)=O)NC(=O)[C@H](CCCCN)NC1=O` gave an IC50 of 0.01 µM (ARID1B; binding, TR-FRET competition; 1% DMSO).
For `CCN(CC)C(=O)[C@@H]1C=C2c3cccc4c3c(cn4C(=O)c3ccco3)C[C@H]2N(C)C1`, the Ki was 1.46 µM (5-hydroxytryptamine receptor 1B (HTR1B, Homo sapiens, UniProt P28222); ligand displacement, radioligand).
For `C=C(C)C1C2OC(=O)C1C1(O)CC3OC34C(=O)OC2C14C` (centres unmarked), the Kd was 0.438 µM (Rdl (Drosophila melanogaster, UniProt P25123); ion current, inhibitor, two-electrode voltage clamp; from koff/kon, together with: GABA at EC50).
With `CC(=O)N(Cc1ccc(Br)cc1)[C@@H](C)C(=O)N(C)[C@@H](C)C(=O)N(Cc1c[nH]c2ccccc12)[C@@H](C)C(=O)N(C)[C@@H](C)C(=O)N(CCC(C)C)[C@@H](C)C(N)=O` the Ki was 24.9 µM (E3 ubiquitin-protein ligase Mdm2 (MDM2, Homo sapiens, UniProt Q00987); ligand displacement, FP).
`COc1ccccc1-c1n[nH]c2nc(N[C@H]3CC[C@H](NS(=O)(=O)CC(C)C)CC3)ncc12` has a relative abundance of 0.83 (bead binding, competition bead pull-down, refers to: LINJ.31.2210; Leishmania donovani extract; 10 µM; relative to: vehicle).
The EC50 of `CCCCCn1cc(C(=O)c2ccc3c(c2)CC(C)(C)C3)c2ccccc21` is reported as 2.45 µM (Cannabinoid receptor 1 (CNR1, Homo sapiens, UniProt P21554, F174A); G protein activation, agonist, BRET).
For `Cc1ccc(O[C@H]2CCN(C)C2)cc1C(=O)N[C@H](C)c1cc(-c2cnn(C)c2)nc2ccccc12`, the viability was 0.459% and 0.153% (Vero E6; 250 µM).
`O=C1NC2(CC2)COc2ncc(F)cc2[C@H]2COCCN2c2ccn3ncc1c3n2` — result for “organ-to-body weight ratio”: 0.022 ± 0.003% (Sprague-Dawley rat, female, adrenals; oral, 2.5 mg/kg/day, 4 weeks, end of treatment).
For `CC(C)CC(C(=O)N1CC2(CC1C#N)C(=O)Nc1ccccc12)N(C)C(=O)c1cc2c(F)cc(F)c(F)c2[nH]1` (centres unmarked), the IC50 was 9 µM and 9.01 µM (Caspase-14 (Homo sapiens, UniProt P31944); enzyme activity, inhibitor).
The normalised growth of `Cc1cc(Oc2nc(N3CC[C@@H](c4ccncc4)C3)ncc2F)[nH]n1` is reported as 10% and 8% (Mycobacterium tuberculosis; OD; H37Rv PurF CRISPRi knockdown; 0.03125 µM, together with: anhydrotetracycline low).
For `CC[C@H](C)[C@H](NC(=O)[C@H](CO)NC(=O)[C@H](Cc1ccc(O)cc1)NC(=O)[C@H](Cc1ccc(O)cc1)NC(=O)[C@H](CC(N)=O)NC(=O)CNC(=O)[C@H](CO)NC(=O)[C@H](Cc1ccc(O)cc1)NC(=O)[C@H](CO)NC(=O)[C@H](CO)NC(=O)[C@H](CC(N)=O)NC(=O)COCCOCCNC(=O)CN1CCN(CC(=O)O)CCN(CC(=O)O)CCN(CC(=O)O)CC1)C(=O)N[C@@H](CC(C)C)C(N)=O` [copper-64 labelled], “maximum metastasis uptake” read 22.1 %IA/cc (dynamic PET; tamoxifen-induced PDAC mouse model, metastases; 1.6 min, CLDN4-expressing tumours).

Some of these lines once more:
The EC50 of `CCCCCn1cc(C(=O)c2ccc3c(c2)CC(C)(C)C3)c2ccccc21` is reported as 2.45 µM (Cannabinoid receptor 1 (CNR1, Homo sapiens, UniProt P21554, F174A); G protein activation, agonist, BRET).
For `Cc1ccc(O[C@H]2CCN(C)C2)cc1C(=O)N[C@H](C)c1cc(-c2cnn(C)c2)nc2ccccc12`, the viability was 0.459% and 0.153% (Vero E6; 250 µM).
`O=C1NC2(CC2)COc2ncc(F)cc2[C@H]2COCCN2c2ccn3ncc1c3n2` — result for “organ-to-body weight ratio”: 0.022 ± 0.003% (Sprague-Dawley rat, female, adrenals; oral, 2.5 mg/kg/day, 4 weeks, end of treatment).
For `CC(C)CC(C(=O)N1CC2(CC1C#N)C(=O)Nc1ccccc12)N(C)C(=O)c1cc2c(F)cc(F)c(F)c2[nH]1` (centres unmarked), the IC50 was 9 µM and 9.01 µM (Caspase-14 (Homo sapiens, UniProt P31944); enzyme activity, inhibitor).
